Published values collected from several papers.
Compare with care: the assays were run in different laboratories. ± marks the error that the study gave.
Target: ATP-dependent translocase ABCB1 (ABCB1, Homo sapiens, UniProt P08183)
UniProt P08183, sequence (whole entry, looked up): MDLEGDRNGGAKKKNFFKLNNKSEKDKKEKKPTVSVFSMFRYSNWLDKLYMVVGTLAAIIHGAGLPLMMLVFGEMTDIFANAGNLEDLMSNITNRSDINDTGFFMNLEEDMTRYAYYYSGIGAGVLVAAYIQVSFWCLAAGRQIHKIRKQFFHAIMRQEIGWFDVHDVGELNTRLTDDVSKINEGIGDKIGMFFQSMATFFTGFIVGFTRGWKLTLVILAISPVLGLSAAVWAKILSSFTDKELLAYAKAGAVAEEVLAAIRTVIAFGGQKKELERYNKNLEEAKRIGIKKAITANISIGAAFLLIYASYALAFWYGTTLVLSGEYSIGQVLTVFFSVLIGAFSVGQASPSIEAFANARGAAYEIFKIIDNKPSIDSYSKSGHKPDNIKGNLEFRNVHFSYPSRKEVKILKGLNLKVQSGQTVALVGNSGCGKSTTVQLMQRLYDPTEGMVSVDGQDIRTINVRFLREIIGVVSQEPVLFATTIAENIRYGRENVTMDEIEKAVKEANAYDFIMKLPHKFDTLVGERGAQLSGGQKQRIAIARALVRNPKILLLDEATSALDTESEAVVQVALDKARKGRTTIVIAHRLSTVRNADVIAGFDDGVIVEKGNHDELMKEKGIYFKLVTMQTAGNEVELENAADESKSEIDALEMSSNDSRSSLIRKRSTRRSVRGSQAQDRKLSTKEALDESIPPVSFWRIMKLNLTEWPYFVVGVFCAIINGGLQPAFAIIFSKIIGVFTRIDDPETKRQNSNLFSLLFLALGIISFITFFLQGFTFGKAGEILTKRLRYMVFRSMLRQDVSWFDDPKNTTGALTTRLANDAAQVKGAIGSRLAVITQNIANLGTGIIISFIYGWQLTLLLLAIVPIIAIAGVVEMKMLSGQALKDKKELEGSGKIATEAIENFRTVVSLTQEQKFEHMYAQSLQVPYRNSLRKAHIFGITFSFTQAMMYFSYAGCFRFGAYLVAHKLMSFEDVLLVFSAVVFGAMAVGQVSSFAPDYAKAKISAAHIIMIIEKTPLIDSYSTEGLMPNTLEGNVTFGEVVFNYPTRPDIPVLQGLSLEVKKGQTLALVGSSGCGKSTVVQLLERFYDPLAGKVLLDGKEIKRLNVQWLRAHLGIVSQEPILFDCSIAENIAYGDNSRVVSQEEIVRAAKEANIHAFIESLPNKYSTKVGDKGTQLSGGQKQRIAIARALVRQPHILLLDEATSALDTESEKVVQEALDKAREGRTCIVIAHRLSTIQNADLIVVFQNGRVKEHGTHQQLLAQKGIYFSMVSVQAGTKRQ

Structure (SMILES) | assay | test system | conditions | scale | quantity | value
C[C@H]1Oc2cc(cnc2N)-c2c(nn(C)c2C#N)CN(C)C(=O)c2ccc(F)cc21 | transport | MDCK-MDR1 | 10 µM, 90 min | reference: B-A over A-B | efflux ratio | < 2
COc1ccccc1-c1cc2nc(-c3ccccc3)cc(N3CCN(C(=O)c4ccco4)CC3)n2n1 | JC-1 efflux, inhibitor | Jurkat-DNR | – | – | IC50 | 3 ± 0.57 µM
C[C@@H](Oc1cc(-c2cnn(C3CCNCC3)c2)cnc1N)c1c(Cl)ccc(F)c1Cl | – | LLC-PK1 cells expressing human ABCB1 | 3.5 h, with: zosuquidar 1 µM | apical to basolateral | Papp | 4.79 ± 1.05 ×10⁻⁶ cm/s
CC(C)[C@H](NC(=O)OC(C)(C)C)c1nc(C(=O)N[C@H](c2nc(C(=O)N[C@H](c3nc(C(=O)O)cs3)C(C)C)cs2)C(C)C)cs1 | efflux transport, inhibitor, flow cytometry | HeLa, transduced with BacMam P-gp | 10 µM, 10 min, 5% FBS, with: calcein-AM 0.5 µM | reference: tariquidar 1 µM | inhibition | < 5%
O=C(c1ccoc1)N1CCN(c2cc(-c3ccccc3F)nc3cc(-c4ccccc4)nn23)CC1 | JC-1 efflux, inhibitor | Jurkat-DNR | – | – | IC50 | 5.61 µM
CC(C)[C@@H]1NC(=O)c2csc(n2)[C@H](C(C)C)NC(=O)c2csc(n2)[C@H](C(C)C)NC(=O)c2csc1n2 | efflux transport, inhibitor, flow cytometry | HeLa, BacMam P-gp transduced | 10 µM, 45 min, with: Bodipy-FL-prazosin | reference: 1 µM tariquidar | inhibition | 89%
Cc1ccc(Nc2nccc(N(C)c3ccc4c(C)n(C)nc4c3)n2)cc1S(N)(=O)=O | bidirectional transport | MDCK-MDR1 | 5 µM, 240 min, with: erlotinib 5 µM | – | Papp B-A | 3.91 ± 0.12 ×10⁻⁶ cm/s
O=C(c1ccoc1)N1CCN(c2cc(-c3ccc(F)cc3)nc3cc(-c4ccccc4)nn23)CC1 | JC-1 efflux, inhibitor | Jurkat-DNR | – | – | IC50 | 11.8 µM
CCOC(=O)c1csc([C@@H](NC(=O)c2csc([C@@H](NC(=O)c3csc([C@@H](NC(=O)c4csc([C@@H](NC(=O)OC(C)(C)C)C(C)C)n4)C(C)C)n3)C(C)C)n2)C(C)C)n1 | calcein-AM efflux, flow cytometry | HeLa transduced with BacMam ABCB1 | 10 µM, 10 min, 5% FBS, with: calcein-AM 0.5 µM | reference: 1 µM tariquidar | inhibition | 59%
COc1cccc2c1C(=O)c1c(O)c3c(c(O)c1C2=O)C[C@@](O)(C(=O)CO)C[C@@H]3O[C@H]1C[C@H](N)[C@H](O)[C@H](C)O1 | ATPase activity, substrate | membranes | with: ATP 1 mM | – | Vmax | 3.5 ± 0.2 nmol Pi/min/mg protein
COc1ccc(-c2cc(N3CCN(C(=O)c4ccoc4)CC3)n3nc(-c4ccccc4)cc3n2)cc1 | JC-1 efflux, inhibitor | Jurkat-DNR | – | – | IC50 | 4.55 µM
CC(C)[C@H](NC(=O)OC(C)(C)C)c1nc(C(=O)O)cs1 | Bodipy-FL-prazosin efflux, flow cytometry | HeLa transduced with BacMam ABCB1 | 20 µM, 45 min, 5% FBS | reference: 1 µM tariquidar | inhibition | 10%
Cc1nnc(C(=O)NC(C)(C)c2nc(C(=O)NCc3ccc(F)cc3)c(O)c(=O)n2C)o1 | – | primary human CD4+ T cells, P-gp high | 1 µM, 30 min, pH 7.4, with: [3H]-labelled compound | reference: P-gp low CD4+ T cells | intracellular accumulation | 38.4 ± 9.6%

Repeated from above:
Structure (SMILES) | assay | test system | conditions | scale | quantity | value
COc1ccccc1-c1cc2nc(-c3ccccc3)cc(N3CCN(C(=O)c4ccco4)CC3)n2n1 | JC-1 efflux, inhibitor | Jurkat-DNR | – | – | IC50 | 3 ± 0.57 µM
C[C@@H](Oc1cc(-c2cnn(C3CCNCC3)c2)cnc1N)c1c(Cl)ccc(F)c1Cl | – | LLC-PK1 cells expressing human ABCB1 | 3.5 h, with: zosuquidar 1 µM | apical to basolateral | Papp | 4.79 ± 1.05 ×10⁻⁶ cm/s
